Published values collected from several papers.
Numbers after ± are the reported error.
Nuclear receptor subfamily 1 group I member 3: Nuclear receptor subfamily 1 group I member 3 (Homo sapiens, UniProt Q14994)
ABCB1: ATP-dependent translocase ABCB1 (ABCB1, Homo sapiens, UniProt P08183)
Cytochrome P450 2A13: Cytochrome P450 2A13 (Homo sapiens, UniProt Q16696)

SMILES	target	test	system	conditions	scale	quantity	result
Clc1cccc(-c2cccc(Cl)c2)c1	Nuclear receptor subfamily 1 group I member 3	CYP2B6 mRNA induction, activator, qRT-PCR	differentiated HepaRG	24 h	baseline: phenobarbital	EC25	26 µM
C=C1CC[C@@H]2[C@](C)(CO)[C@H](O)CC[C@@]2(C)[C@@H]1/C=C/C1=CCOC1=O	UDP-glucuronosyltransferase 2B7 (UGT2B7, Homo sapiens, UniProt P16662)	AZT glucuronidation, inhibitor	human liver microsomes	together with: zidovudine substrate	–	Ki	90.4 µM
O=c1ccc2ncc(=O)n3c2n1C[C@H]3CN1CCC(NCc2cc3c(cn2)OCCC3)CC1	ABCB1	substrate	transporter-overexpressing cell monolayers	–	–	efflux ratio	11 to 15
Cc1ccc2cc(N3CCC4(O)C(=O)c5cc(C)c(C)cc5N=C34)ccc2n1 (centres unmarked)	cytochrome P450	inhibitor	–	–	–	IC50	> 100 µM
CC(=O)c1c(O)c(C)c(O)c(Cc2c(O)c3c(c(C(=O)/C=C/c4ccccc4)c2O)OC(C)(C)C=C3)c1O	Thioredoxin reductase 1, cytoplasmic (Txnrd1, Rattus norvegicus, UniProt O89049)	inhibitor	–	–	–	kinact/KI	5 ± 0.667 M⁻¹ s⁻¹
O=C1CC(c2ccccc2)Oc2ccccc21 (centres unmarked)	Cytochrome P450 2A13	enzyme activity, inhibitor	–	together with: 10 µM coumarin	–	IC50	0.4 to 10 µM
C=CC1CO1 (centres unmarked)	Cytochrome P450 2E1 (Cyp2e1, Rattus norvegicus, UniProt P05182)	4-nitrophenol oxidation, inhibitor	F344 rat, liver microsomes	binding to substrate-bound enzyme	–	Ki	42 µM
C#CCOCCc1cccc2ccccc12	Cytochrome P450 2A13	enzyme activity, inhibitor	–	together with: 10 µM coumarin	–	IC50	15 to 80 µM
NC(=O)c1nc(F)c[nH]c1=O	ABCB1	transport, inhibitor	–	100 µM, 5 (unit not given), pH 7, together with: NMN	–	inhibition	64.4%
Clc1ccc(-c2ccccc2Cl)cc1	Nuclear receptor subfamily 1 group I member 3	CYP2B6 mRNA induction, activator, qRT-PCR	differentiated HepaRG	24 h	baseline: phenobarbital	EC25	9 µM
Oc1cc(Cl)c(-c2ccc(Cl)cc2Cl)c(Cl)c1O	cytochrome P450	GC-MS	rat, Sprague-Dawley, male, corn oil-pretreated, liver microsomes	50 µM, 2 h, 37 °C	–	metabolite formation	not detected
CCN(CCO)CCCC(C)Nc1ccnc2cc(Cl)ccc12 (centres unmarked)	ABCB1	transport, inhibitor	–	100 µM, 5 (unit not given), pH 7, together with: NMN	–	inhibition	81.6%
Clc1cc2c(cc1Cl)Oc1cc(Cl)c(Cl)cc1O2	Aryl hydrocarbon receptor (Ahr, Rattus norvegicus, UniProt P41738)	reporter gene, agonist, DR-Luc	–	–	–	EC50	2.7 ± 0.3 pM
C#CCOc1ccccc1-c1ccccc1OCC#C	Cytochrome P450 2A13	enzyme activity, inhibitor	–	together with: 10 µM coumarin	–	IC50	> 80 µM
CC(C)CC(=O)OC[C@H]1O[C@@](C#N)(c2ccc3c(N)ncnn23)[C@H](O)[C@@H]1O	ABCB1	–	Caco-2	90 µM, 2 h	–	efflux ratio	9.16
Cc1cccc(C)c1OCC(=O)N[C@@H](Cc1ccccc1)[C@@H](O)C[C@H](Cc1ccccc1)NC(=O)[C@H](C(C)C)N1CCCNC1=O	ABCB1	transport activity, inhibitor	–	100 µM, 5 (unit not given), pH 7	–	inhibition	90.8%
C#CCOCc1ccc(-c2ccccc2)cc1	Cytochrome P450 2A13	enzyme activity, inhibitor	–	together with: 10 µM coumarin	–	IC50	> 80 µM
Cc1cc2nc3c(=O)[nH]c(=O)nc-3n(C[C@H](O)[C@H](O)[C@H](O)COP(=O)(O)O)c2cc1C	Iodotyrosine deiodinase (Haliscomenobacter hydrossis, UniProt F4KU78, R38E)	bound cofactor redox, redox titration	–	pH 7.4, 25 °C, anaerobic, no substrate	–	midpoint potential	-218 ± 2 mV
NC(=O)c1ncn([C@@H]2O[C@H](CO)[C@@H](O)[C@H]2O)n1	ABCB1	transport, inhibitor	–	100 µM, 5 (unit not given), pH 7, together with: NMN	–	inhibition	67.9%
C#CCOCc1cccc2ccccc12	Cytochrome P450 2A13	enzyme activity, inhibitor	–	together with: 10 µM coumarin	–	IC50	< 20 µM
C[C@@H]1CCN(C(=O)CC#N)C[C@@H]1N(C)c1ncnc2[nH]ccc12	ABCB1	transport, inhibitor	–	100 µM, 5 (unit not given), pH 7, together with: NMN	–	inhibition	36%
C#CCOCCc1ccc2ccccc2c1	Cytochrome P450 2A13	enzyme activity, inhibitor	–	together with: 10 µM coumarin	–	IC50	0.4 to 10 µM
C[C@@H]1CC[C@]2(C(=O)O)CC[C@]3(C)C(=CC[C@@H]4[C@@]5(C)CC[C@H](O)[C@@](C)(CO)[C@@H]5CC[C@]43C)[C@@H]2[C@]1(C)O	CYP3A4/5	midazolam 1'-hydroxylation, mechanism-based inhibitor, probe cocktail incubation	pooled human liver microsomes	50 µM, 20 min, 30 min pre-incubation, together with: midazolam 1.535 µM	–	remaining activity	74.8%
O=C1CCC(N2C(=O)c3ccccc3C2=O)C(=O)N1 (centres unmarked)	ABCB1	transport, inhibitor	–	100 µM, 5 (unit not given), pH 7, together with: NMN	–	inhibition	60.5%
C#CCOc1ccccc1-c1ccccc1	Cytochrome P450 2A13	enzyme activity, inhibitor	–	together with: 10 µM coumarin	–	IC50	> 80 µM
CCOC(=O)C1=C[C@@H](OC(CC)CC)[C@H](NC(C)=O)[C@@H](N)C1	ABCB1	transport, inhibitor	–	100 µM, 5 (unit not given), pH 7, together with: NMN	–	inhibition	69.5%
CS(=O)(=O)Nc1ncn(-c2cc(F)c(COc3ccc(OS(=O)(=O)F)cc3)c(F)c2)n1	CYP isoforms (human)	enzyme activity, inhibitor	–	–	–	IC50	> 50 µM
CC[C@H](C)[C@H](NC(=O)[C@H](Cc1ccccc1)NC(=O)[C@H](CCC(=O)O)NC(=O)[C@H](CCCCN)NC(=O)[C@H](C)NC(=O)[C@H](C)NC(=O)[C@H](CCC(N)=O)NC(=O)CNC(=O)[C@H](CCC(=O)O)NC(=O)[C@H](CC(C)C)NC(=O)[C@H](Cc1ccc(O)cc1)NC(=O)[C@H](CO)NC(=O)[C@H](CO)NC(=O)[C@@H](NC(=O)[C@H](CC(=O)O)NC(=O)[C@H](CO)NC(=O)[C@@H](NC(=O)[C@H](Cc1ccccc1)NC(=O)[C@@H](NC(=O)CNC(=O)[C@H](CCC(=O)O)NC(=O)[C@H](C)NC(=O)N(N)Cc1c[nH]cn1)[C@@H](C)O)[C@@H](C)O)C(C)C)C(=O)N[C@@H](C)C(=O)N[C@@H](Cc1c[nH]c2ccccc12)C(=O)N[C@@H](CC(C)C)C(=O)N[C@H](C(=O)N[C@@H](CCCNC(=N)N)C(=O)NCC(=O)N[C@@H](CCCNC(=N)N)C(=O)NCC(=O)O)C(C)C	Dipeptidyl peptidase 4 (DPP4, Homo sapiens, UniProt P27487)	HPLC-UV	Tris-HCl	0.1 mM, 4 h, pH 7.4, 37 °C, together with: DPP4 16 nM	–	remaining peptide	100%
CN(C)C(=O)COC(=O)Cc1ccc(OC(=O)c2ccc(NC(=N)N)cc2)cc1	ABCB1	transport, inhibitor	–	100 µM, 5 (unit not given), pH 7, together with: NMN	–	inhibition	73.9%
